Measurements collected from several papers.
± gives the spread as reported.
Fibroin-modulator-binding protein-1: Fibroin-modulator-binding protein-1 99-193 (Bombyx mori, UniProt Q5FBS0)
SPT15/TOA1/TOA2/SUA7 1-240; 1-286; 1-122; 1-345: SPT15/TOA1/TOA2/SUA7 1-240; 1-286; 1-122; 1-345 (Saccharomyces cerevisiae)
YAP1 full length assumed: YAP1 full length assumed (Saccharomyces cerevisiae, UniProt P19880)
Sequence of UniProt P19880 (whole entry, looked up): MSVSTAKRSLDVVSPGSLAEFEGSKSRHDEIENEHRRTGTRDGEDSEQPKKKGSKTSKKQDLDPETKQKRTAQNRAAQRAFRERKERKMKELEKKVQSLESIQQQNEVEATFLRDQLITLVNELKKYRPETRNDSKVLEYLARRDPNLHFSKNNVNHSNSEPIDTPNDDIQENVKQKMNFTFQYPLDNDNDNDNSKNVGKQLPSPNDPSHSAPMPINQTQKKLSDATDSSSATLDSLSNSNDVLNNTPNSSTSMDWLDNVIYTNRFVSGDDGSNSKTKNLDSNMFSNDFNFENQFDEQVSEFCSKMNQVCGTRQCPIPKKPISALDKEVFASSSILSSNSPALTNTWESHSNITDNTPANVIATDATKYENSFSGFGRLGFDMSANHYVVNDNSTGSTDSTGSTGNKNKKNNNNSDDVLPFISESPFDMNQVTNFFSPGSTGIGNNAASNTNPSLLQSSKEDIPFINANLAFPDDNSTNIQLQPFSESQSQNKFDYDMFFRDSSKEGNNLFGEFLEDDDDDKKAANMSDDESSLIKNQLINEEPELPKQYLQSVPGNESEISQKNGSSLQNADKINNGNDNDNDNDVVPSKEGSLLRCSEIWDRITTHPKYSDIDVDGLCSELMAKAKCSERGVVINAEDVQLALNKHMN
allR full length assumed: allR full length assumed (Escherichia coli, UniProt P0ACN4)
Sequence of UniProt P0ACN4 (whole entry, looked up): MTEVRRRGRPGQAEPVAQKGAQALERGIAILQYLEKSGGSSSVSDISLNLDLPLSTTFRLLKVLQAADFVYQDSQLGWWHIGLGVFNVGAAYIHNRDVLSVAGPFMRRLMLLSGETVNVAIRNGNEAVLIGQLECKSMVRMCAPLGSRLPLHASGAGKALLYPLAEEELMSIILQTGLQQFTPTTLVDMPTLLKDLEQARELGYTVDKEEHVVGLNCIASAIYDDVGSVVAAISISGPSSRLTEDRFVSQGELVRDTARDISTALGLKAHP
Sequence of UniProt P0A7G6 (whole entry, looked up): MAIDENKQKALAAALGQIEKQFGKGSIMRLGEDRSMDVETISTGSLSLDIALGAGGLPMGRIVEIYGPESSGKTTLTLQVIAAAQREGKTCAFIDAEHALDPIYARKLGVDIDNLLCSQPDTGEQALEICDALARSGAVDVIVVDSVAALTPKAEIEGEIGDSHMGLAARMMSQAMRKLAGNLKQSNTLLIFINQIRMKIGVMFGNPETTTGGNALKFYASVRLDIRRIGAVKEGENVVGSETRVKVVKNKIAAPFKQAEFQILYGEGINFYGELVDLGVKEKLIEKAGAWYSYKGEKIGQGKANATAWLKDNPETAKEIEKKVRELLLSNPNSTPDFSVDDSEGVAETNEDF
Sequence of UniProt P25454 (whole entry, unmodified, looked up): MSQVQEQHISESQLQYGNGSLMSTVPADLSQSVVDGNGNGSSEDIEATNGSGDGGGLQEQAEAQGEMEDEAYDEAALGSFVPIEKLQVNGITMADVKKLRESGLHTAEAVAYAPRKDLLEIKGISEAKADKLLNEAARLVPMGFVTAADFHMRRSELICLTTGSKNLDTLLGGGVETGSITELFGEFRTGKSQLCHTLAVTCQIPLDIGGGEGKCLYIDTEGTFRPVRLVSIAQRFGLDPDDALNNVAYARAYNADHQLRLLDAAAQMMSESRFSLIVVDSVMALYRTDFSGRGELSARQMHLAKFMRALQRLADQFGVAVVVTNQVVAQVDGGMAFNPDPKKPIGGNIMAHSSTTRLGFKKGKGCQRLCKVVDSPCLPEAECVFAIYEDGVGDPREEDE
Sequence of UniProt P50548 (whole entry, looked up): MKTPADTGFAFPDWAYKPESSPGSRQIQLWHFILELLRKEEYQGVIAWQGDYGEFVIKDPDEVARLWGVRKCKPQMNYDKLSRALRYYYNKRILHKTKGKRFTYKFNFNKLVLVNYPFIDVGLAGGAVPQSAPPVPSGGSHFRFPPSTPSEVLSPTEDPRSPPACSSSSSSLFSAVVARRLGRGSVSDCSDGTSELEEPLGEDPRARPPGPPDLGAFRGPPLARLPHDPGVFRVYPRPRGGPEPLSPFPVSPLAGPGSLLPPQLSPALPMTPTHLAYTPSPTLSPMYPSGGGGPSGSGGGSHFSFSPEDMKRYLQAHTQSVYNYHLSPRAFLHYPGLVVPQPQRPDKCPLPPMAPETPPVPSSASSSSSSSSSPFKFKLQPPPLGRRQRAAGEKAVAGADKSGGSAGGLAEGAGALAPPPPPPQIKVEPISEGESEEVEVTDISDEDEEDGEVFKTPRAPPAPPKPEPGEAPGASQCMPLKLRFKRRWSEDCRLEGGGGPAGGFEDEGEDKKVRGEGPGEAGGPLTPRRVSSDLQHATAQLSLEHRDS
Sequence of UniProt P43243 (whole entry, looked up): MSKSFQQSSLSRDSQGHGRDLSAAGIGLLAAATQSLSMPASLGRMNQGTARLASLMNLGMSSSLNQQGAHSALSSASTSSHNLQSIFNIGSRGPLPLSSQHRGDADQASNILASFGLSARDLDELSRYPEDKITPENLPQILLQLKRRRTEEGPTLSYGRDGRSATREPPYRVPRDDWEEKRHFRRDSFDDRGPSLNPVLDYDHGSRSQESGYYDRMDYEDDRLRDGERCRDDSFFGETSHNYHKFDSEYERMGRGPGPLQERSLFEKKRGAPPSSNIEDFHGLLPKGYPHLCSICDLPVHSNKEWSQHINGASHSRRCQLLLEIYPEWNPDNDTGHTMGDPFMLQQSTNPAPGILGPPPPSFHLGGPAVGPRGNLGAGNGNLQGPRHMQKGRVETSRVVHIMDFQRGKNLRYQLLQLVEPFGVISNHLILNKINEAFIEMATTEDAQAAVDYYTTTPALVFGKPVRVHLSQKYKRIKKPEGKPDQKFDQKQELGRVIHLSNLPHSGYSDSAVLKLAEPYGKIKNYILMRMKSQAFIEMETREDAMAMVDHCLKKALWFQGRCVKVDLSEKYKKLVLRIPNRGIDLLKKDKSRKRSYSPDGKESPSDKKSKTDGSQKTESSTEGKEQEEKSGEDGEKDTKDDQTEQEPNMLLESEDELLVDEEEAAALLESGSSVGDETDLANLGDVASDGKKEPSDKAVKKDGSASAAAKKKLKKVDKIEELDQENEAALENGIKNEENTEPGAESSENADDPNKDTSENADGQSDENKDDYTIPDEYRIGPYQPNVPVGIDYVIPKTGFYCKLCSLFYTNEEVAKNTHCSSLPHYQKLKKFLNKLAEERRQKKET
Sequence of UniProt P32787 (whole entry, looked up): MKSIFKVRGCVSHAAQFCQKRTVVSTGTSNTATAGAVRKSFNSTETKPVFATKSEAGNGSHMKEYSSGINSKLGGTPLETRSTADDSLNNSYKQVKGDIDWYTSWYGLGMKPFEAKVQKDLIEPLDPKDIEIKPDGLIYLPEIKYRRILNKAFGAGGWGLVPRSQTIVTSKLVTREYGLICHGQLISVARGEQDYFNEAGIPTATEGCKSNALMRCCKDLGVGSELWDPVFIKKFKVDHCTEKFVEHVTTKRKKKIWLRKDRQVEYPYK
Sequence of UniProt P33301 (whole entry, looked up): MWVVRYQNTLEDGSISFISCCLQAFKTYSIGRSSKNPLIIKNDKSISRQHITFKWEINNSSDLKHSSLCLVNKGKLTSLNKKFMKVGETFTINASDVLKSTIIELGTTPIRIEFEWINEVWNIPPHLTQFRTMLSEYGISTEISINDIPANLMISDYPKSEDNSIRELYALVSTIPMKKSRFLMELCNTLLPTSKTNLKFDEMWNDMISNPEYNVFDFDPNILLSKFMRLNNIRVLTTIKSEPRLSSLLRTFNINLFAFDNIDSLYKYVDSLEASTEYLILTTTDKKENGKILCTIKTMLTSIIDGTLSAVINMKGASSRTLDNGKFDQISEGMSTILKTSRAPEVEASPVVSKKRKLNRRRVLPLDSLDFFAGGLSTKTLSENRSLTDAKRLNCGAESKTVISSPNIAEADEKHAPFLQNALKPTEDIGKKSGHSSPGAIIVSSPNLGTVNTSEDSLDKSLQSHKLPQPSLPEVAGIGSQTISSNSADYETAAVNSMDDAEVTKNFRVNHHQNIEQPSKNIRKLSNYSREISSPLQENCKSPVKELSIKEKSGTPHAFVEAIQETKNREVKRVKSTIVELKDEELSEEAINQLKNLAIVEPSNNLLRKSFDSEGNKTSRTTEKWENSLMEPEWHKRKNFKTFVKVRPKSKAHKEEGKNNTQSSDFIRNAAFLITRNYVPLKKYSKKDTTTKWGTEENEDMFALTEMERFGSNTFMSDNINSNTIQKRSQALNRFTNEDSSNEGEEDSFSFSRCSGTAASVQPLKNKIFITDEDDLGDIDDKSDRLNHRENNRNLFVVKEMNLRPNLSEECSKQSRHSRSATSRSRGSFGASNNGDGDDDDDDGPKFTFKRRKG
Sequence of UniProt Q8N884 (whole entry, unmodified, looked up): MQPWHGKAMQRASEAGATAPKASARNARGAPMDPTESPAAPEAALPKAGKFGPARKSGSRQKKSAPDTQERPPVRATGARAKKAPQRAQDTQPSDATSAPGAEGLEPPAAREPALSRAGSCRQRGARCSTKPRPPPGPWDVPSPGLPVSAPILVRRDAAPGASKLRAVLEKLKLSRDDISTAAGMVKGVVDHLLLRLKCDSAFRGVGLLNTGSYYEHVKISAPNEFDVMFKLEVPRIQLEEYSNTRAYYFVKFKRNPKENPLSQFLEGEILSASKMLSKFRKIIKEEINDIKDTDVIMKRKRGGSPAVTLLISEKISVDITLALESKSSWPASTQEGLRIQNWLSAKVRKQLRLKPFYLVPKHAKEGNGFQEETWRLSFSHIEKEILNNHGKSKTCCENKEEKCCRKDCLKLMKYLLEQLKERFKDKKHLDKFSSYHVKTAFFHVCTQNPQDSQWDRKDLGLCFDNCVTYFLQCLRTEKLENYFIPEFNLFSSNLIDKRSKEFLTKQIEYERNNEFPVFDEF

GTGTTCGGACTCTGCCTCAAGACGGTAGTCAACGTGCTTG (dsDNA)  Kd (XRS2 1-325 (Saccharomyces cerevisiae, UniProt P33301); EMSA; double-stranded DNA, one strand shown; Hill fit, apparent): 1.8 ± 0.1 µM
TACATACATACA (dsDNA)  Kd (Fibroin-modulator-binding protein-1; ITC; double-stranded DNA, one strand shown): 0.642 ± 0.0573 µM
TTTTTTTTTTTTTTTTTTTTTTTTTTTTTTTTTTTTTTTTTTTTTTTTTTTTTTTTTTTTTTTTTTTTTT (ssDNA)  Kd (RAD51 full length assumed Y112S/Y253L (Saccharomyces cerevisiae, UniProt P25454); fluorescence anisotropy; single-stranded DNA; apparent, Hill fit, added: ATP): 0.69 ± 0.11 µM
GTGGGTGGGTGG (dsDNA)  Kd (Fibroin-modulator-binding protein-1; ITC; double-stranded DNA, one strand shown): 6.88 µM
CTTACGACCTAGGGTGGGTAGGGTGCATTATGTTGGTGGTCGTAAG (DNA hairpin; 8-bp stem, 30-nt loop)  Kd (F2 alpha-thrombin (Homo sapiens); BLI; folded DNA): 0.0018 µM
CCCGCCCCGCACTAGGACCCCTGCAGATGATCAGGTCAAGTCAATCGGTCC (dsDNA; 5'-amino-C6 primer)  Kd (SPT15/TOA1/TOA2/SUA7 1-240; 1-286; 1-122; 1-345; array; double-stranded DNA, one strand shown; TBP:TFIIA:TFIIB ternary complex): 0.0121 ± 0.0113 µM
AGTCAGTCAGTC (dsDNA)  Kd (Fibroin-modulator-binding protein-1; ITC; double-stranded DNA, one strand shown): 6.73 µM
ATTTATATTATTTATTCATATTTATATTTA (ssDNA)  Kd (APOBEC3F full length assumed D311K (Homo sapiens, UniProt Q8IUX4); EMSA; single-stranded DNA): 1.1 ± 0.359 µM
AGTTGGCAAGTC (dsDNA)  Kd (NFIB 14-176 (Homo sapiens, UniProt O00712); BLI; double-stranded DNA, one strand shown; added: Zn2+ 1 mM): 0.00209 ± 6e-05 µM
AUUCAUUCACAC (ssRNA)  Kd (TARDBP 102-269 (Homo sapiens, UniProt Q13148); BLI; RNA): 1.36 ± 0.6 µM
GACCGGAAGTGG (dsDNA)  Kd (ERF 22-140 (Homo sapiens, UniProt P50548); fluorescence anisotropy; double-stranded DNA, one strand shown; 50 nM DNA): 0.136 ± 0.018 µM
TAGATAGATAGA (dsDNA)  Kd (Fibroin-modulator-binding protein-1; ITC; double-stranded DNA, one strand shown): 1.18 ± 0.0665 µM
UUCCUAUAUCUUCU (XNA; single strand, 2'-OMe, phosphorothioate backbone)  Kd (MATR3 1-847 (Homo sapiens, UniProt P43243); fluorescence polarization; modified nucleic acid; apparent): 0.243 ± 0.119 µM
GAATTCCTATATATTAATGTGGAGCTCCGTTCGTCTCAAGTCAATCGGTCC (dsDNA; 5'-amino-C6 primer)  Kd (SPT15/TOA1/TOA2/SUA7 1-240; 1-286; 1-122; 1-345; array; double-stranded DNA, one strand shown; TBP:TFIIA:TFIIB ternary complex): 0.00209 ± 0.00055 µM
GGGAGAACUUCGACCAGAAGAAACCAGGAGGACGCACAUUACGCAAAAAGUAUCCCUGCCUAUGUGCGCAUACAUGGAUCCUC (ssRNA; 2'-fluoro pyrimidines)  relative binding (integrin alphaV/beta3 31-992/27-718 (Homo sapiens); SPR; RNA; added: MnCl2 1 mM; higher = more binding): 92.2 RU
GSGAGQITKV  binding intensity (human MAGI1-3/6 PDZ construct (MBP fusion); automated holdup; peptide, crude extract; concentration not given, corrected by standard peak, unit not given; baseline: biotin control resin, higher = stronger binding): 0.227
ATCTAACTGCTGCGCCGCCGGGAAAATACTGTACGGTTAGA (ssDNA)  Kd (PTK7 31-1070 (Homo sapiens, UniProt Q13308); live-cell fluorescence correlation spectroscopy; in cells, not purified): 0.00079 ± 0.00015 µM
DNA 1 TGATTTCTTCGAAGAATATACTAAAAAATGAGCAGTCAATTCAATCGGTCC / DNA 2 GGACCGATTGACTTGACTGCTCATTTTTTAGTATATTCTTCGAAGAAATCA (dsDNA; 5'-amino-C6 primer)  Kd (SPT15/TOA1/TOA2/SUA7 1-240; 1-286; 1-122; 1-345; array; double-stranded DNA; TBP:TFIIA:TFIIB ternary complex): 0.00168 ± 0.00018 µM
DNA 1 GGATCTCGACGCTCTCCCTT / DNA 2 GTCGAGATCC (dsDNA; 3' 10-nt overhang, blunt end)  Kd (RECQL 49-616 D230A/R232A (Homo sapiens, UniProt P46063); fluorescence anisotropy; double-stranded DNA; Mg2+ 5 mM, without ADPNP): 0.173 ± 0.029 µM
GGGCUGCUGUGGCAUUUCGAUGCUGCAUCGGC (structured RNA)  Kd (DCL1 1732-1811 E1747R/E1750R/E1763R (Arabidopsis thaliana, UniProt Q9SP32); fluorescence polarisation; folded RNA): 0.09 ± 0.011 µM
CTGAAGGGGGGGCTATAAAAGGGGATGGGGGCTCCTCAAGTCAATCGGTCC (dsDNA; 5'-amino-C6 primer)  Kd (SPT15/TOA1/TOA2/SUA7 1-240; 1-286; 1-122; 1-345; array; double-stranded DNA, one strand shown; TBP:TFIIA:TFIIB ternary complex): 0.00192 ± 0.00036 µM
CGCATAATTACCCAATTACCGAATTACCTAATTACGCAATTACGGAATTACGTAACTCCGGCGGTATGAC (dsDNA)  Kd (YAP1 full length assumed; MITOMI; double-stranded DNA, one strand shown; not purified): 0.33 ± 0.04 µM
TAAGACACGATGCGATAAAATCTG (dsDNA)  Kd (CGAS 161-522 (Homo sapiens, UniProt Q8N884); fluorescence anisotropy; double-stranded DNA, one strand shown): 1.51 ± 0.38 µM
DNA 1 AGCTAAAATTTGGACAGCTCTCATTACTAAATTAATCAATTCAATCGGTCC / DNA 2 GGACCGATTGACTTGATTAATTTAGTAATGAGAGCTGTCCAAATTTTAGCT (dsDNA; 5'-amino-C6 primer)  Kd (SPT15/TOA1/TOA2/SUA7 1-240; 1-286; 1-122; 1-345; array; double-stranded DNA; TBP:TFIIA:TFIIB ternary complex): 0.00206 ± 0.0003 µM
TTCTACGAGATCGTCATGAC (ssDNA)  Kd (recA full length assumed (Escherichia coli, UniProt P0A7G6); BLI; single-stranded DNA; added: ATPgS): 1.93 ± 0.04 µM
PMESGICTIV  binding intensity (human MAGI1-3/6 PDZ construct (MBP fusion); automated holdup; peptide, purified PDZ protein; concentration not given, unit not given; baseline: biotin control resin, higher = stronger binding): 0.062
ACCCACCCACCC (dsDNA)  Kd (Fibroin-modulator-binding protein-1; ITC; double-stranded DNA, one strand shown): 6.04 µM
CACTCTGACGTCACACTC (dsDNA)  Kd (ATF4 276-351 C310A (Homo sapiens, UniProt P18848); fluorescence polarization; double-stranded DNA, one strand shown; added: Mg2+ 10 mM): 0.11 ± 0.02 µM
CGCACCTAATGACGCAATGACGGAATGACGTAATGACTCAATGACTGAATGACTTCTCCGGCGGTATGAC (dsDNA)  Kd (YAP1 full length assumed; MITOMI; double-stranded DNA, one strand shown; not purified): 2 ± 0.2 µM
DNA 1 TGGGTGGGTAGGGTGGGTAGGGGAGGAT / DNA 2 ATCCTCCCCTA (DNA; intramolecular parallel G4, 5' overhang, 11-bp duplex)  Kd (REV1 330-833 F427L (Homo sapiens, UniProt Q9UBZ9); FP; folded DNA; KCl 100 mM): 0.0037 ± 0.0008 µM
TTTTTTTTTTTTTTTTTTTTTTTTTTTTTTTTTTTTTTTTTTTTTTTT (dsDNA)  Kd (MGM101 23-269 (Saccharomyces cerevisiae, UniProt P32787); fluorescence polarization; double-stranded DNA, one strand shown): 2.1 ± 1.5 µM
GGGAGAACUUCGACCAGAAGGACUACGCGAAACUUACUCCCCCCGCCUGUCCUUAAACUUUAUGUGCGCAUACAUGGAUCCUC (ssRNA; 2'-fluoro pyrimidines)  relative binding (integrin alphaV/beta3 31-992/27-718 (Homo sapiens); SPR; RNA; added: MnCl2 1 mM; higher = more binding): 95.7 RU
GTGGACTAAATCTAGTTTTGGAAAAATATTCCAACTTTTGTATTGATGTTGTTCTCTTAAG (dsDNA)  Kd (allR full length assumed; BLI; double-stranded DNA, one strand shown): 0.00869 µM
GTAAGTAAGTAA (dsDNA)  Kd (Fibroin-modulator-binding protein-1; ITC; double-stranded DNA, one strand shown): 5.11 ± 0.983 µM
CACCATCCACTAC / ATGTAGTTGTAGTGGATGGTGGTAC (dsDNA; primer-template)  Kd (POLH 1-432 R81C (Homo sapiens, UniProt Q9Y253); fluorescence polarization; added: MgCl2 5 mM): 0.018 ± 0.002 µM
CTCAGGAATTCCTCTAAAGTAATGTGGAGCTCAGTTCAAGTCAATCGGTCC (dsDNA; 5'-amino-C6 primer)  Kd (SPT15/TOA1/TOA2/SUA7 1-240; 1-286; 1-122; 1-345; array; double-stranded DNA, one strand shown; TBP:TFIIA:TFIIB ternary complex): 0.00211 ± 0.00033 µM
DNA 1 CACTGGCCGTCTTACGGTCGCTCTGCTCGACG / DNA 2 CGACCGTAAGACGGCCAGTG (dsDNA; 20 bp, 3' 12 nt overhang)  Kd (RECQL 63-592 K393A (Bos taurus, UniProt A0JN36); fluorescence anisotropy; double-stranded DNA; added: Mg2+ 3 mM): 0.0733 ± 0.0079 µM
TAAGACACGATGCGATAAAATCTGTTTGTAAAATTTATTAAGGGTACAAATTGCCCTAGC (dsDNA)  Kd (CGAS 1-522 K394A (Homo sapiens, UniProt Q8N884); fluorescence anisotropy; double-stranded DNA, one strand shown): 0.111 ± 0.018 µM
TCCTGAAGGGGCACCCTAGCTTGGTCCTATCGTCGTCAAGTCAATCGGTCC (dsDNA; 5'-amino-C6 primer)  Kd (SPT15/TOA1/TOA2/SUA7 1-240; 1-286; 1-122; 1-345; array; double-stranded DNA, one strand shown; TBP:TFIIA:TFIIB ternary complex): 0.00314 ± 0.00038 µM
CTCGTTCAGGGGGCTGGTAATATTGGAAAAATTGCCCGTTCTTTAGCTGAAATCAAACTGA (dsDNA)  Kd (allR full length assumed; BLI; double-stranded DNA, one strand shown): 0.232 µM

Repeated from above:
CGCACCTAATGACGCAATGACGGAATGACGTAATGACTCAATGACTGAATGACTTCTCCGGCGGTATGAC (dsDNA)  Kd (YAP1 full length assumed; MITOMI; double-stranded DNA, one strand shown; not purified): 2 ± 0.2 µM
DNA 1 TGGGTGGGTAGGGTGGGTAGGGGAGGAT / DNA 2 ATCCTCCCCTA (DNA; intramolecular parallel G4, 5' overhang, 11-bp duplex)  Kd (REV1 330-833 F427L (Homo sapiens, UniProt Q9UBZ9); FP; folded DNA; KCl 100 mM): 0.0037 ± 0.0008 µM
TTTTTTTTTTTTTTTTTTTTTTTTTTTTTTTTTTTTTTTTTTTTTTTT (dsDNA)  Kd (MGM101 23-269 (Saccharomyces cerevisiae, UniProt P32787); fluorescence polarization; double-stranded DNA, one strand shown): 2.1 ± 1.5 µM
GGGAGAACUUCGACCAGAAGGACUACGCGAAACUUACUCCCCCCGCCUGUCCUUAAACUUUAUGUGCGCAUACAUGGAUCCUC (ssRNA; 2'-fluoro pyrimidines)  relative binding (integrin alphaV/beta3 31-992/27-718 (Homo sapiens); SPR; RNA; added: MnCl2 1 mM; higher = more binding): 95.7 RU
GTGGACTAAATCTAGTTTTGGAAAAATATTCCAACTTTTGTATTGATGTTGTTCTCTTAAG (dsDNA)  Kd (allR full length assumed; BLI; double-stranded DNA, one strand shown): 0.00869 µM
GTAAGTAAGTAA (dsDNA)  Kd (Fibroin-modulator-binding protein-1; ITC; double-stranded DNA, one strand shown): 5.11 ± 0.983 µM
